Measured values collected from several papers.
Compare with care: the assays were run in different laboratories. Values joined by “and” are separate records of one study, mostly repeats; a detail may differ. ± gives the spread as reported.
CXCR4: C-X-C chemokine receptor type 4 (CXCR4, Homo sapiens, UniProt P61073)
Chain of UniProt P61073 (whole entry, looked up): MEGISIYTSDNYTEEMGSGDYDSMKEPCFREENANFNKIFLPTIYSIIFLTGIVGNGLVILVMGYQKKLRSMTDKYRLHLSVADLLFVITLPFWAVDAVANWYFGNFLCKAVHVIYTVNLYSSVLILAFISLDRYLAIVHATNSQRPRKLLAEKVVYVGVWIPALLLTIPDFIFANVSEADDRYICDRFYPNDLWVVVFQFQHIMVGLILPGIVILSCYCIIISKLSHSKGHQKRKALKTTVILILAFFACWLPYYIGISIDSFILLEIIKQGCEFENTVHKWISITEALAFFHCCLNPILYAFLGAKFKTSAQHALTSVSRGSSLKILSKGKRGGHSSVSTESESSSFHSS
PARP1: Poly [ADP-ribose] polymerase 1 (PARP1, Homo sapiens, UniProt P09874)
Chain of UniProt P09874 (whole entry, looked up): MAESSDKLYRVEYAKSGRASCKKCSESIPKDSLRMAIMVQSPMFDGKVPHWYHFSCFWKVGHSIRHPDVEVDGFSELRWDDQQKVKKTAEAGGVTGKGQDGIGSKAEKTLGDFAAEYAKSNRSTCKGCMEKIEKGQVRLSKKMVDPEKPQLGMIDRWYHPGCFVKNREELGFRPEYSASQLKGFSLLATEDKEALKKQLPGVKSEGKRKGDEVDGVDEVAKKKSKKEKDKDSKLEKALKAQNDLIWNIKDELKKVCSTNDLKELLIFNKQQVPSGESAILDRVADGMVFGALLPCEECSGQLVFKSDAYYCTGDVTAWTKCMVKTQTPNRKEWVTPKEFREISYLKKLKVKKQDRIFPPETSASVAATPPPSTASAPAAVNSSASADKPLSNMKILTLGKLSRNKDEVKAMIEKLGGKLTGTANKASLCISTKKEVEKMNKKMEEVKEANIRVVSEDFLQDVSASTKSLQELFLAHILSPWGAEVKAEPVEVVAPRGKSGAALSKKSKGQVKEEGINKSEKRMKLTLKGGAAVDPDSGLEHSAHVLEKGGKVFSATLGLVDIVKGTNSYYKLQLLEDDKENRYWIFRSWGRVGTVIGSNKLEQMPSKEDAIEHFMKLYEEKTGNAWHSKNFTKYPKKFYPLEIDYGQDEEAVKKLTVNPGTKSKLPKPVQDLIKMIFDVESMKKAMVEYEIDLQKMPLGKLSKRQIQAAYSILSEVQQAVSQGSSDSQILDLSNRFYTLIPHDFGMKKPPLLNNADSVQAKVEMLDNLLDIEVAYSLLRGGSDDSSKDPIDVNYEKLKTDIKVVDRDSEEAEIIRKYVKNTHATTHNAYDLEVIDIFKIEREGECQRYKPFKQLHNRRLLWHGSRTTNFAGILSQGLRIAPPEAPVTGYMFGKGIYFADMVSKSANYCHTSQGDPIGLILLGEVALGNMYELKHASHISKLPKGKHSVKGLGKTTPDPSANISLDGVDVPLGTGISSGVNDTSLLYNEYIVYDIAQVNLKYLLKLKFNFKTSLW
Chain of UniProt P49841 (whole entry, looked up): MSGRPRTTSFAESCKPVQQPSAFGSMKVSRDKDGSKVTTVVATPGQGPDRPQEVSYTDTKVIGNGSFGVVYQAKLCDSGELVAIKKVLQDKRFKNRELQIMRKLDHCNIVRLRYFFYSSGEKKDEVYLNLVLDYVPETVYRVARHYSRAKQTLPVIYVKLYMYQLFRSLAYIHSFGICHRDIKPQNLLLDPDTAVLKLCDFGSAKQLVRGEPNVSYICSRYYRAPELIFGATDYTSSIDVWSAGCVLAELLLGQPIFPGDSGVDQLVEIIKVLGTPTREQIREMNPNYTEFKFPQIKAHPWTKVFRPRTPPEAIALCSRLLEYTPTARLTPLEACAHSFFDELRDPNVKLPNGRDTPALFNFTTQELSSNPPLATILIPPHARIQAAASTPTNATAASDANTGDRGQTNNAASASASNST
Chain of UniProt Q86YT5 (whole entry, looked up): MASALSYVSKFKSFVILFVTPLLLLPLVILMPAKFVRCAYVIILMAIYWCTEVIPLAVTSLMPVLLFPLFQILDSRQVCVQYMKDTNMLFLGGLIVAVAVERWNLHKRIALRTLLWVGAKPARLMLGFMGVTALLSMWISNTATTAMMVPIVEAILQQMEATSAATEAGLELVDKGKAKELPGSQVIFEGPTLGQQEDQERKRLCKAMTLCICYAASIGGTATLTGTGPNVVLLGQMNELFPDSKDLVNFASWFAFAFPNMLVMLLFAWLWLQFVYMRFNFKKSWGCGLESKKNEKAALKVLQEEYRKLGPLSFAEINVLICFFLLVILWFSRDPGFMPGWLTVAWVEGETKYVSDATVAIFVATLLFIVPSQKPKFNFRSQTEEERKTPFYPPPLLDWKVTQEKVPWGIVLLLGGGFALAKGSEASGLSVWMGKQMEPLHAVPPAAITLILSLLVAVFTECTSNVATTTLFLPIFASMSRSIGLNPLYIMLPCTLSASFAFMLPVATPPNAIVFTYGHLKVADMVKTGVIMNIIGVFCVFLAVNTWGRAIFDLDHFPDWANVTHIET
Chain of UniProt P33527 (whole entry, looked up): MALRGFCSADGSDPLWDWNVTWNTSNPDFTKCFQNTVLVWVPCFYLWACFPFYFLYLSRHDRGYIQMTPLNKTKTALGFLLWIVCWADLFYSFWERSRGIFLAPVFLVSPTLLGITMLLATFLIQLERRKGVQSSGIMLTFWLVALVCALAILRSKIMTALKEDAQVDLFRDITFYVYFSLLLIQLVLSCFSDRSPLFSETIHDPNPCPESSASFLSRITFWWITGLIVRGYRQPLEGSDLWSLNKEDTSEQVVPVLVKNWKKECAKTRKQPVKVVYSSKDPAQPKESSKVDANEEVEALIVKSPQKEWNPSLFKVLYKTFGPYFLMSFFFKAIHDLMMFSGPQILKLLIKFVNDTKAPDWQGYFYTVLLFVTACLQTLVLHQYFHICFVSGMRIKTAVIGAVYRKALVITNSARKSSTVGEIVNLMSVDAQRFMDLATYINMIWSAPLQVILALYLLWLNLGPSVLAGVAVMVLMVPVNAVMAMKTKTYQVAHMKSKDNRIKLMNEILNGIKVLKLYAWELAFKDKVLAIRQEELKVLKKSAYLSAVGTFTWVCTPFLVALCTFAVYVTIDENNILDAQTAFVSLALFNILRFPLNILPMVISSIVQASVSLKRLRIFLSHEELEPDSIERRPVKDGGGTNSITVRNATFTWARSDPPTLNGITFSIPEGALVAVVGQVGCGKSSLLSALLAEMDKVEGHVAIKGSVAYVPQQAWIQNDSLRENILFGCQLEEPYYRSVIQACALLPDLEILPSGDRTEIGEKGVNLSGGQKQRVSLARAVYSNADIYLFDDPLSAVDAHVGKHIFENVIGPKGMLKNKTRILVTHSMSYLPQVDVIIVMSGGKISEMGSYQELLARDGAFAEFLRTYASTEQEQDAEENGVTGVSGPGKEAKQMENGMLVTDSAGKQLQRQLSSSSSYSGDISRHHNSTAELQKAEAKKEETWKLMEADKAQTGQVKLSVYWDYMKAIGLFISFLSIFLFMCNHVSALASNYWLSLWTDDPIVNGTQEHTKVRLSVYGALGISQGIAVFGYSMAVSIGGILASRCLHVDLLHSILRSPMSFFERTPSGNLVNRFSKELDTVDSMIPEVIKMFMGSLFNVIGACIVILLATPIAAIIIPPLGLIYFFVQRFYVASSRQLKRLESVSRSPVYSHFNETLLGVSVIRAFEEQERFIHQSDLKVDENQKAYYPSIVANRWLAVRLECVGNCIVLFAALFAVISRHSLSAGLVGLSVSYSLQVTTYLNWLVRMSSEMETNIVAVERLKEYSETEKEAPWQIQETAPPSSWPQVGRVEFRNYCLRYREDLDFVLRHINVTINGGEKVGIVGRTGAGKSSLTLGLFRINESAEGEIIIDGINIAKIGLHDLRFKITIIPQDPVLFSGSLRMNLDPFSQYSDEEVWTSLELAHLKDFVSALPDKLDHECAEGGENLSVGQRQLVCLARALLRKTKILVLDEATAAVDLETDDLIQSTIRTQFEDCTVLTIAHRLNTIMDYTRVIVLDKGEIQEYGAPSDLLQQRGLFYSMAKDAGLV
Chain of UniProt P27487 (whole entry, looked up): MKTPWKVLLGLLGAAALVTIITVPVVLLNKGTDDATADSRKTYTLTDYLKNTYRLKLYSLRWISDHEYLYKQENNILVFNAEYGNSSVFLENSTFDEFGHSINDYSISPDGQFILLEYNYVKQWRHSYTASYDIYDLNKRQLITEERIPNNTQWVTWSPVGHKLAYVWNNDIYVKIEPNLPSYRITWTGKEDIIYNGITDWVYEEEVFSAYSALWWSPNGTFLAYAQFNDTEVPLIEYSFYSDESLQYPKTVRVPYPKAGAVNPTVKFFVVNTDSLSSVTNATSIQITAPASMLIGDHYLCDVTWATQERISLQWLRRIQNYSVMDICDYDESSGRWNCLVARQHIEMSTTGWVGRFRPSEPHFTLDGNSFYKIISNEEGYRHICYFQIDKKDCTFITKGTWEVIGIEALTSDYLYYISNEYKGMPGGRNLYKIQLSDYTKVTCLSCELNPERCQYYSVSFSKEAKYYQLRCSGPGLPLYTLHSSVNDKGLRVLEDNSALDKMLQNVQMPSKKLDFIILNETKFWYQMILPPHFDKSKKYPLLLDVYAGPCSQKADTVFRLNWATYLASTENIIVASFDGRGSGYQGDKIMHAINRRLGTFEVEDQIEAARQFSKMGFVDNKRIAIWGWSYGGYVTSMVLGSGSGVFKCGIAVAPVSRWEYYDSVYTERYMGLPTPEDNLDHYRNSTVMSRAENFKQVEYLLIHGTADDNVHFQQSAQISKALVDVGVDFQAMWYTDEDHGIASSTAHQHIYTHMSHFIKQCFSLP
Chain of UniProt Q61618 (whole entry, looked up): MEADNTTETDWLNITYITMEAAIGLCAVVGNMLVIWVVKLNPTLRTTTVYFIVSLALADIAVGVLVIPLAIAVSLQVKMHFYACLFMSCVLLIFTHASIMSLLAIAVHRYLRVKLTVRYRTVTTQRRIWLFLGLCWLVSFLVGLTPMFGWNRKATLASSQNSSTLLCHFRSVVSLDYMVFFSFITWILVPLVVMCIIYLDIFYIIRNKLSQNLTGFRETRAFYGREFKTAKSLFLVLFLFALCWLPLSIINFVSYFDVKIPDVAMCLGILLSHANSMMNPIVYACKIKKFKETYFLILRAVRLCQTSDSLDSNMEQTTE

| SMILES | target | assay | system | setting | IC50 |
| --- | --- | --- | --- | --- | --- |
| COC(=O)C(Cc1ccc(CCCC(=O)NCCC(=O)Nc2ccc3nc(C)sc3c2)cc1)C(=O)O (stereo not shown) | L-lactate dehydrogenase B chain (LDHB, Homo sapiens, UniProt P07195) | inhibitor, NADH fluorescence | – | pyruvate competition, with: 150 µM NADH, 200 µM pyruvate | 106 ± 11 µM |
| COc1cc(/C=C/C(O)=C/C(=O)/C=C/c2ccc(O)cc2)ccc1O | Hsd3b1 (Rattus norvegicus, UniProt P22071) | enzyme activity, inhibitor | rat testicular microsomes | lower bound from 100 µM screen, with: pregnenolone | < 100 µM |
| CNC(=O)[C@@]12C[C@@H]1[C@@H](n1cnc3c(NC)nc(C#C[c-]4cccc4)nc31)[C@H](O)[C@@H]2O.[Fe+2].c1cc[cH-]c1 | Adenosine receptor A3 (Mus musculus, UniProt Q61618) | cAMP | – | – | 0.00314 µM |
| Cn1c(=O)c(=O)n(C)c2cc(S(=O)(=O)NNC(=O)NC(=O)c3ccccc3)ccc21 | Dipeptidyl peptidase 4 (DPP4, Homo sapiens, UniProt P27487) | enzyme activity, inhibitor, fluorescence | – | – | 0.000144 µM |
| O=C(O)/C=C/c1ccc(O)c(O)c1 | Cell division cycle 7-related protein kinase, with DBF4 (CDC7, Homo sapiens, UniProt O00311) | enzyme activity, inhibitor, ADP-Glo luminescence | – | with: ATP 12.5 µM | 6.19 ± 0.42 µM |
| COc1ccc(-c2nn(-c3ccccc3)cc2C2CC(c3ccc(Br)cc3)=NN2C(=O)CCC(=O)O)cc1 (stereo not shown) | Replication protein A 70 kDa DNA-binding subunit (RPA1, Homo sapiens, UniProt P27694) | protein-nucleic acid interaction, inhibitor, mobility shift | – | – | > 100 µM |
| O=c1[nH]c(=O)c2cc(S(=O)(=O)Nc3ccc(-c4ccncc4)cc3)ccc2[nH]1 | N-acyl-phosphatidylethanolamine-hydrolyzing phospholipase D (Homo sapiens, UniProt Q6IQ20) | enzyme activity | – | wild type | 46.2 ± 1.6 µM |
| Cn1c(S)nc2ccccc21 | mbtI (Mycobacterium tuberculosis, UniProt P9WFX1) | enzyme activity, inhibitor, continuous fluorescence | – | with: chorismate | 83.9 ± 4.7 µM |
| CC(=O)O.[Cu+2].c1ccc(CN2CCCN3CCN(CCCN(Cc4ccccc4)CC3)CC2)cc1 | CXCR4 | ligand displacement, flow cytometry | – | – | 0.0298 µM |
| c1cc(CNCCCNC2CCCCC2)nc(CNc2nc(N3CCNCC3)nc3[nH]cnc23)c1 | CXCR4 | ligand displacement, radioligand | – | cell membranes | 0.0329 µM |
| CS(=O)(=O)OC[C@@H]1COc2cccc(C(N)=O)c2O1 | PARP1 | – | – | – | 0.69 ± 0.27 µM |
| COc1ccc(-c2cc(=O)c3c(OC)c([C@@H]4O[C@H](C(=O)NCC(F)(F)F)[C@@H](O)[C@H](O)[C@H]4O)c(OC)cc3o2)cc1OC | Glycogen synthase kinase-3 beta (GSK3B, Homo sapiens, UniProt P49841) | enzyme activity, inhibitor, ADP detection | – | – | < 20 µM and 19.3 µM |
| CN1CCN(C2=Nc3ccccc3Oc3ccc(Cl)cc32)CC1 | Multidrug resistance-associated protein 1 (ABCC1, Homo sapiens, UniProt P33527) | efflux, inhibitor | SupT1-Vin overexpressing ABCC1 | with: SYTO 13 100 nM | 16.2 ± 4.8 µM |
| COc1cccc2cc(-c3nnc(SCC(=O)Nc4ccc(C)c(C)c4)n3-c3ccccc3)oc12 | fungal tyrosinase | enzyme activity, inhibitor, dopachrome absorbance | – | pH 6.8, 37 °C, with: L-tyrosine substrate | 1.82 ± 5.42 µM |
| O=C(NC1CCCCC1)OCc1cn(Cc2c(F)cccc2F)nn1 | Fatty-acid amide hydrolase 1 (FAAH, Homo sapiens, UniProt O00519) | enzyme activity, inhibitor, fluorescence | – | cell membranes | 0.812 µM |
| O=C(NCc1ccc(F)cc1)C1CCN(S(=O)(=O)c2cc(Cl)cc(Cl)c2)CC1 | Na(+)/citrate cotransporter (Homo sapiens, UniProt Q86YT5) | citrate uptake, inhibitor | HepG2 | 30 min preincubation, inhibitor also during uptake, with: Li+ | 0.049 ± 0.003 µM |
| O=C1c2ccccc2-c2nc3nnnn3nc21 | Proteasome Macropain subunit MB1 (PSMB5, Homo sapiens, UniProt P28074) | enzyme activity | – | with: Suc-LLVY-AMC substrate, ATP | > 30 µM |
| COc1ccc(C=CC(=O)c2ccc(NC(=O)CSc3nc4ccccc4c(=O)n3-c3ccccc3)cc2)cc1 | PARP1 | enzyme activity, inhibitor, absorbance | – | – | 0.102 µM |
| O=C(O)CCC(C(=O)O)[C@@H]1CCN[C@H]1C(=O)O (relative stereo) | AMPA receptor, rat | binding | cortical synaptosomes | with: [3H]-AMPA | > 100 µM |

For quick reference, copied from above:
| SMILES | target | assay | system | setting | IC50 |
| --- | --- | --- | --- | --- | --- |
| c1cc(CNCCCNC2CCCCC2)nc(CNc2nc(N3CCNCC3)nc3[nH]cnc23)c1 | CXCR4 | ligand displacement, radioligand | – | cell membranes | 0.0329 µM |
| CS(=O)(=O)OC[C@@H]1COc2cccc(C(N)=O)c2O1 | PARP1 | – | – | – | 0.69 ± 0.27 µM |
